Measurements from different studies.
Each line is one published result; not all experiments were run side by side. “And” joins repeats or separate records; there may be more than shown. Numbers after ± are the reported error.

For N#Cc1ccn2c(-c3ccncc3)c(-c3ccc(F)cc3)nc2c1, “log2 fold change” read -0.113 (kinase binding, competitor, MIB/MS competition, refers to: SHA3; Candida albicans cell lysate; 10 µM; relative to: DMSO).
Under “change in DBP AUEC(0-4 h)”, CCCn1cc(C)c2c(=O)[nH]c(-c3cc(S(=O)(=O)N4CCN(CC)CC4)ccc3OCC)nc21 is recorded as -12.7 ± 13.5 mmHg·h (supine; concentration not given, 0 to 4 h; relative to: baseline).
Under “MCL1 mRNA level”, CN1CC[C@@H](c2c(O)cc(O)c3c(=O)cc(-c4ccc(C(F)(F)F)cc4Cl)oc23)[C@@H]1CO is recorded as “decreased” (quantitative RT-PCR; AML patients, PBMCs; oral, 100 to 200 mg; relative to: pretreatment).
For Cc1ccc(C(=O)Nc2ccnc(S(N)(=O)=O)c2)c(N2CCCC(F)(F)CC2)n1, the activity-dependent slowing was 78.4 ± 5.18 % baseline (Macaca mulatta, C-nociceptors; intravenous, 0.6 mg/kg bolus then 0.8 mg/kg/h, 90 min).
Oc1ccc(Br)cc1C=NCCN1CCOCC1 has an inhibition of 15.6% (nitric oxide scavenging; 80 µM).
COc1cc2c(c(OC)c1OC)C(=O)c1c(cc(C)c(O)c1OC)C2=O gave a viability of 11.2 ± 5.93% (HK-2 co-cultured with HepaRG; MTT; 133.33 µM, 48 h; relative to: untreated control).
CC(C)n1ncc2c(C(=O)NCC3(C)CNC3)cc(C3CC3)nc21 gave a cell protection of -1.3% and 1.3% (coxsackievirus A6; CPE; RD; 0.015 µM).
Under “change in Schiff sensitivity score”, N=C(N)NCCC[C@H](NC(=O)[C@H](CCCNC(=N)N)NC(=O)[C@H](CCCCN)NC(=O)[C@H](CCC(N)=O)NC(=O)[C@H](CCCCN)NC(=O)[C@H](Cc1ccc(O)cc1)NC(=O)[C@@H](N)CCCCN)C(=O)N[C@@H](CO)C(=O)N[C@@H](Cc1ccc(O)cc1)C(=O)N[C@@H](CCCCN)C(=O)O is recorded as -1.2 ± 0.84 (human, dentin hypersensitivity patients; topical to tooth, 5 µg/tooth repeated, day 36, phase 1/2a trial; direction not given).
Cn1cc(-c2ccc(-c3cncc(Cl)c3N3CCC4(CCNC4=O)CC3)cc2)cn1 — result for “log2 fold change”: 1.72 (COLO 205; gene expression, microarray, refers to: CD59 mRNA; concentration not given, 2 h; relative to: untreated cells).
N.N.O=C([O-])C1(C(=O)[O-])CCC1.[Pt+2] — result for platinum-DNA adducts: “no effect” (human patient, PBMC DNA; dose not given, 24 h, with: carboplatin; relative to: baseline).
N#Cc1ccc2c(c1)[C@H]1CCCN(C(=O)c3ccc4[nH]cnc4c3)[C@H]1C2: “change from baseline” -17.2 mg/dL (refers to: Triglycerides; human; 80 mg once daily, day 28, adjusted mean; relative to: placebo).
N#Cc1ccc2c(c1)[C@H]1CCCN(C(=O)c3ccc4[nH]cnc4c3)[C@H]1C2: “change in HOMA-IR” -13.5% (human, plasma; 240 mg, day 15, 360 h; relative to: placebo and baseline).
Under “Banff mm score”, C=CC[C@@H]1/C=C(\C)C[C@H](C)C[C@H](OC)[C@H]2O[C@@](O)(C(=O)C(=O)N3CCCC[C@H]3C(=O)O[C@H](/C(C)=C/[C@@H]3CC[C@@H](O)[C@H](OC)C3)[C@H](C)[C@@H](O)CC1=O)[C@H](C)C[C@@H]2OC is recorded as 0 (rhesus monkey kidney transplant, kidney allograft; dose not given; direction not given).
Cc1cc([C@H]2C[C@H]3[C@@H](C)SC(N)=N[C@@]3(c3ccc(F)cc3F)CO2)on1 gave an Aβ42 level of 0.21 ng/g (refers to: Aβx-42; Mus musculus wild-type, brain; subcutaneous, 50 mg/kg, 7 h).
With NCC(=O)Nc1cncc(-c2nn3c(=O)cc(N4CCNCC4)nc3s2)c1 the inhibition was 0% (ADP-induced platelet aggregation, light transmission aggregometry; human, stable CAD on aspirin, ex vivo platelets; subcutaneous, 0.04 mg/kg, 240 min post-dose, mean value, with: ADP 20 µM).
COc1c(O[C@@H]2O[C@H](CO)[C@@H](O)[C@H](O)[C@H]2O)c(C)cc2c1C(=O)c1c(O)cccc1C2=O has a cell viability of 59.9 ± 1.33% (HK-2 co-cultured with HepaRG; MTT; 133.33 µM, 48 h; relative to: untreated control).
Under “log2 fold change”, Cc1n[nH]c2ccc(-c3cc(OC[C@@H](N)Cc4ccccc4)cnc3-c3ccoc3)cc12 is recorded as -1.68 (kinase binding, competitor, MIB/MS competition, refers to: HST7; Candida albicans cell lysate; 10 µM; relative to: DMSO).
O=C(O[C@@H]1[C@@H](O)[C@H](Oc2cc(O)c3c(c2)O[C@H](c2ccccc2)CC3=O)O[C@@H]2COC(=O)c3cc(O)c(O)c(O)c3-c3c(cc(O)c(O)c3O)C(=O)O[C@@H]12)c1cc(O)c(O)c(O)c1 gave a platelet accumulation of 29.6 ± 9.08% (laser-injury thrombosis model; mouse, cremaster arterioles; intraperitoneal, 25 µg/g; relative to: control).
N=C(N)NCCC[C@@H](NC(=O)CCOCCOCCNC(=O)[C@H](CCCCNC(=O)CC[C@H](NC(=O)c1ccc(NCc2cnc3nc(N)[nH]c(=O)c3n2)cc1)C(=O)O)NC(=O)CO/N=C/[C@H](F)[C@@H](O)[C@H](O)[C@H](O)CO)C(=O)NCC(=O)N[C@H](CC(=O)O)C(N)=O [fluorine-18 labelled]: “reduction of tumour uptake” about 58% (nude mice, MDA-MB-231 xenograft, tumour; dose not given, 2.5 h, with: unlabelled folic acid 200 µg; relative to: unblocked).
With Cn1cc(Nc2nc(N)nc(-c3cccc(-n4ccc5cc(C6CC6)cc(F)c5c4=O)c3CO)n2)cn1 the inhibition was 85% (CD63 upregulation, anti-IgE-induced; human, multiple ascending dose, whole blood basophils ex vivo; 150 mg twice daily, day 14, 2 h).
O=C(O)CNC(=O)Cc1ccccc1 gave a sarcomere length of 1.66 µm (ventricular cardiomyocytes, C57BL/6 mouse; dose not given, 0.82 s).
CCN1[C@@H](C(=O)NC23CCC(C(=O)O)(CC2)CC3)[C@H](c2cccc(Cl)c2F)[C@]2(C(=O)Nc3cc(Cl)ccc32)C12CCCCC2 — result for “disease control rate”: 100% (human, advanced solid tumours, MDM2-amplified TP53 wild type; dose not given, eight patients, RECIST).
CN(C)C(=O)Oc1cccc([N+](C)(C)C)c1 has a train-of-four ratio of 61 (neuromuscular block reversal; rat; dose not given, 8 (unit not given), with: cisatracurium; relative to: T1 twitch).
For Cc1cnc(N2CC3(CCOCC3)C2)c(C(=O)Nc2ccc(C(=O)N3CCc4cc(C(=O)Nc5c(C)cccc5F)sc4-c4ccccc43)cc2)c1, “inhibition of HMGB1 AUC” read 4% (human, RSV infection, nasal wash; dose not given, ITT-IS population; relative to: placebo).
CC(C)NCC(O)c1ccc(O)c(O)c1 (centres unmarked) has a sarcomere length of 1.52 µm (ventricular cardiomyocytes, C57BL/6 mouse; dose not given, 0.56 s).
CCN(Cc1nc2c(N)nc3cc(-c4cc[nH]n4)ccc3c2[nH]1)C(C)=O — result for “median progression-free survival”: 1.7 months (Kaplan-Meier; human advanced solid tumours; dose not given).
Under “change, mean 24 h, plasma glucose”, Cc1ccc([C@@H]2O[C@H](CO)[C@@H](O)[C@H](O)[C@H]2O)cc1Cc1ccc(-c2ccc(F)cc2)s1 is recorded as -42 mg/dL (Japanese type 2 diabetes patients; 25 mg, day 16; relative to: day 0).
Cc1cn(-c2cc(NC(=O)c3ccc(C)c(Nc4nccc(-c5cccnc5)n4)c3)cc(C(F)(F)F)c2)cn1 — result for “median difference in change”: 0.12 (refers to: DOPAC; human, cerebrospinal fluid; dose not given, between 12 and 6 months, unit not given; relative to: placebo).
For CO[C@H]1CC[C@H](N2C(=O)CNc3ncc(-c4ccc(C(C)(C)O)nc4)nc32)CC1, “pS6RP change from baseline” read -67.5% (flow cytometry; stimulated B cells, human, blood; 30 mg single dose, 5 h, mean; relative to: baseline).
With FC(F)(F)Oc1cccc(-c2cnc3ccc(-c4ccncc4)nn23)c1 the tumour size was 0.307 a.u. and 0.325 a.u. and 0.256 a.u. and 0.126 a.u. and 0.211 a.u. (MDA-MB-231 xenograft, NSG mouse; oral, 10 mg/kg daily, day 23; higher = larger tumour).
CC(=O)OC(C)C[N+](C)(C)C (centres unmarked): contraction AUC “increased” (rat colon ex vivo; 1 nM to 10 µM).
C[C@H]1O[C@@H](O[C@H]2CC[C@@]3(C)[C@@H](CC[C@]4(C)[C@@H]3C=C[C@]35OC[C@@]6(CCC(C)(C)C[C@H]63)[C@@H](O)C[C@]54C)[C@]2(C)CO)[C@H](O)[C@@H](O[C@@H]2O[C@H](CO)[C@@H](O)[C@H](O)[C@H]2O)[C@H]1O: “SIRT1 to β-actin ratio” 0.514 fold change and 0.649 fold change and 0.608 fold change (Western blot; ethanol-fed mice, liver; dose not given, -L dose; relative to: control mice).
CC(C)C[C@H](NC(=O)C[C@H](O)[C@H](CC(C)C)NC(=O)[C@H](Cc1c[nH]cn1)NC(=O)CNC(=O)[C@@H](NC(=O)[C@H](C)NC(=O)[C@H](Cc1c[nH]c2ccccc12)NC(=O)[C@H](CCC(N)=O)NC(=O)[C@@H](Cc1ccccc1)NC(=O)COCCOCCNC(=O)CCC(C(=O)O)N1CCN(CC(=O)O)CCN(CC(=O)O)CCN(CC(=O)O)CC1)C(C)C)C(N)=O (some centres unmarked) [lutetium-177 labelled] gave a tissue uptake of 0.4 ± 0.1 %ID/g (BALB/c nu/nu mice, female, muscle; 100 pmol, 30 min, time course 0.5 h, with: PA 300 µg).
Under “Ki-67 positive cells”, CC(C)C[C@@H]1NC(=O)[C@H](CC(C)C)NC(=O)[C@H](Cc2c[nH]c3ccccc23)NC(=O)[C@H](CO)NC(=O)[C@H](Cc2c[nH]c3ccccc23)NC(=O)[C@@H]2CCCN2C(=O)[C@H](CC(C)C)NC(=O)[C@H](Cc2c[nH]cn2)NC(=O)[C@@H]2CCCN2C(=O)[C@H](CC(N)=O)NC(=O)[C@H](C)NC(=O)[C@H](Cc2ccc(O)cc2)NC(=O)[C@H](CS)NC(=O)[C@H](CCCCNC(=O)CN2CCN(CC(=O)O)CCN(CC(=O)O)CCN(CC(=O)O)CC2)NC1=O [lutetium-177 labelled] is recorded as 8.85 ± 0.71% (immunohistochemistry; BALB/c mice, 4T1 tumour; dose not given, 7 days).
Under “urinary glucose excretion”, CCOc1ccc(Cc2cc([C@@H]3S[C@H](CO)[C@@H](O)[C@H](O)[C@H]3O)c(OC)cc2C)cc1 is recorded as 76.9 g/day (human; dose not given, multiple ascending dose).
Under mRNA level, N#Cc1ccc2c(CN3CCOCC3)cc(-c3ccc([C@H]4CCC(=O)N4)cc3)nc2c1 is recorded as “decreased” (decreased, refers to: Ccl2; BTBR ob/ob mice, male, diabetic wound model, wound tissue; dose not given, 21 days; relative to: vehicle).
FC(F)(F)Oc1cccc(-c2ccnc3[nH]c(C(F)(F)F)nc23)c1: liver triglycerides “decreased” (GAN diet MASH mice; 300 mg/kg, 31 days; relative to: GAN control).
CC#CC(=O)N[C@H]1CCCN(c2c(F)cc(C(N)=O)c3[nH]c(C)c(C)c23)C1 — result for “change from baseline in serum IgM”: -5.3% (healthy volunteers, multiple ascending dose, serum; 3 mg once daily, day 21).
For Cc1cc(C)c(CNC(=O)c2cc(Cl)c3c(c2C)O[C@@](C)([C@H]2CC[C@H](N(C)C)CC2)O3)c(=O)[nH]1, “best overall response PR” read 36% (modified 2009 ATLL criteria; human, relapsed/refractory adult T-cell leukaemia-lymphoma; dose not given).
Under mRNA level, Cc1cc(/C=C2\Oc3cc(OCC4CC4)ccc3C2=O)cc(C)c1OC(C)(C)C(=O)O is recorded as “increased” (RT-PCR, refers to: PNPLA2, LPL, Apo C-II; db/db mice, MCD diet-fed, liver; 30 mg/kg; relative to: model group).
For COc1nc(NCc2cn(-c3ccc(C(=O)Nc4ccccc4)cc3)nn2)nc(OC)n1, “maximum non-toxic concentration” read 40.9 ± 1.48 nM (MTT; normal colonocytes, rat; 72 h).
